Experimental data collected from several papers.
Each numbered part is a random draw from the data of one study; scales do not carry over between parts. Substitutions count along the parent as printed.

Block 1
Target: Prothrombin, mature alpha-thrombin (F2, Homo sapiens, UniProt P00734)
Method: aptamer microarray, sandwich
Form: DNA with 2'F-ANA
Medium: in vitro
Tested at: 200 nM
Notes: whole 15-mer aptamer, many near background
Added: Cy3 exosite-II aptamer, 400 nM
Reading: higher = stronger binding
Measurement: mean fluorescence intensity
Strand: GGTTGGTGTGGTTGG
2'F-ANA at 3 7 9 12 14 15: 673 a.u.
2'F-ANA at 1 2 8: 226 a.u.
2'F-ANA at 3 4 6 9 10 12 14: 168 a.u.
2'F-ANA at 6 9 11 13 14: 142 a.u.
2'F-ANA at 9 10 11 13 14 15: 105 a.u.
2'F-ANA at 1 2 3 4 6 7 8 9 11 13 14 15: 61.9 a.u.
2'F-ANA at 1 2 5 6 8 9 10 14: 51.2 a.u.
2'F-ANA at 1 2 4 5 13 15: 51.8 a.u.
2'F-ANA at 1 3 6 7 8 12 13 14 15: 132 a.u.

Block 2
Target: CCNE1, cyclin fold, Cln2 fusion (human)
Method: yeast growth competition, sequencing
Medium: yeast
Notes: weak parent motif
Relative to: not given
Reading: higher = stronger binding
Measurement: normalised enrichment score
Starting sequence: ORC1 docking peptide (human); PRARKRLELGNLG
PRARKHLELGNLG [R6H]: 0.769
PRARKRLELLNLG [G10L]: 1.04
FRARKRLELGNLG [P1F]: 0.0588
PRARKRLELGSLG [N11S]: 0.702
PRARKRLELGNFG [L12F]: 0.663
PIARKRLELGNLG [R2I]: 1.43
PRARKRLEQGNLG [L9Q]: 0.403
PRARKRLEMGNLG [L9M]: 0.491

Block 3
Target: Phosphate system positive regulatory protein PHO4, full length, GST-tagged (PHO4, Saccharomyces cerevisiae, UniProt P07270, residues 1-312)
Method: competition protein-binding microarray
Form: double-stranded DNA, one strand shown
Medium: in vitro
Tested at: 2 µM
Notes: whole 60-bp probe, lowest competitor level
Added: Cbf1 competitor, 0.05 µM
Reading: higher = stronger binding
Measurement: fluorescence intensity
All sequences stand within: … GTCTTGATTCGCTTGACGCTGCTG
Construct (chain): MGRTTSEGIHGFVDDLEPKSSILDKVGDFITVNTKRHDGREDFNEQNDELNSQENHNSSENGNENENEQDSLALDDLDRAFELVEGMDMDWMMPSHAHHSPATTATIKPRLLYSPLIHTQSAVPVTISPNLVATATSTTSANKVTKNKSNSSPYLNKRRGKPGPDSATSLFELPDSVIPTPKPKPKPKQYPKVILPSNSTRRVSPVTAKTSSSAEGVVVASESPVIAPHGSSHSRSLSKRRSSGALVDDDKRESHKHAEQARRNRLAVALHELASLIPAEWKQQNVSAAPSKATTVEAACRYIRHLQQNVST
CTTTCCCGATCTTGTCACGAAACTTTAGCACATTTG: 4290 a.u.
AAATTACTAAGTTGGGCCGTGGGTGACGCCGTATGA: 5290 a.u.
CAAAATCTTACCAGAAACGTGCTTTCTTCTGGCTTC: 13700 a.u.
TCGAGCCAGATCCCGCTCGTGGGACTGTTCATTCTG: 8710 a.u.
ATATTATTGATTTTGCACGTGACGAAATGAAAAACA: 16500 a.u.
AGTTGGTATATTTTGCACGTGTAGTCTAATGTTCTT: 16600 a.u.

Other studies, line by line
PhoQ, residues 284 288 289 292 302 303 ALASRC — fold induction (PhoP, residues 12 14 15 18 19 AGCRL (Escherichia coli, UniProt P23836); Sort-seq, refers to: YFP reporter; E. coli; PhoQ-PhoP variant library, added: 10 µM Mg2+; relative to: high Mg2+ state, higher = stronger signaling): 7.39

Excerpt of the above (block 3):
CTTTCCCGATCTTGTCACGAAACTTTAGCACATTTG: 4290 a.u.
AAATTACTAAGTTGGGCCGTGGGTGACGCCGTATGA: 5290 a.u.
